Literature values that unrelated publications cite.
Each numbered part shows a few of the values that one paper quotes. ± gives the spread as reported. In brackets after ≈: the same amount, converted by molar mass.

Study 1
Organism: Cryptosporidium parvum
Method: high-throughput screen
Concentration: concentration not given
SMILES | activity
COc1ccc2cc(CCC(C)=O)ccc2c1 | inactive
CO[C@H]1O[C@@H]2O[C@@]3(C)CC[C@H]4[C@H](C)CC[C@@H]([C@H]1C)[C@@]24OO3 | inactive
CN1CCN(CC/C=C2/c3ccccc3Sc3ccc(S(=O)(=O)N(C)C)cc32)CC1 | inactive
CC(=O)OCC[N+](C)(C)C | inactive
CC1(C)C[C@@H]1C(=O)N/C(=C\CCCCSC[C@H](N)C(=O)O)C(=O)[O-].[Na+] | inactive
CCC(C)n1ncn(-c2ccc(N3CCN(c4ccc(OCC5COC(Cn6cncn6)(c6ccc(Cl)cc6Cl)O5)cc4)CC3)cc2)c1=O (stereo not drawn) | inactive
CNC(=C[N+](=O)[O-])NCCSCc1csc(CN(C)C)n1 | inactive
Cc1cccc(C)c1NC(=O)C(C)N (stereo not drawn) | inactive
O=C1c2c(O)cc(O)cc2OC(c2ccc(O)c(O)c2)C1O (stereo not drawn) | inactive
COCCOC(=O)C1=C(C)NC(C)=C(C(=O)OC(C)C)C1c1cccc([N+](=O)[O-])c1 (stereo not drawn) | inactive
CC(=O)S[C@@H]1CC2=CC(=O)CC[C@]2(C)[C@H]2CC[C@@]3(C)[C@@H](CC[C@@]34CCC(=O)O4)[C@H]12 | inactive
CC[C@@]1(O)C(=O)OCc2c1cc1n(c2=O)Cc2cc3c(CN(C)C)c(O)ccc3nc2-1 | inactive
O=C1Nc2ccc(Cl)cc2[C@@](C#CC2CC2)(C(F)(F)F)O1 | inactive
CO[C@@]1(NC(=O)Cc2cccs2)C(=O)N2C(C(=O)O)=C(COC(N)=O)CS[C@@H]21 | inactive
CC1=C(/C=C/C(C)=C/C=C/C(C)=C/C(=O)O)C(C)(C)CCC1 | inactive
O=C(O)CCc1nc(-c2ccccc2)c(-c2ccccc2)o1 | inactive
CN(C)CCOC(c1ccccc1)c1ccccc1 | inactive
C[C@@H](c1ncncc1F)[C@](O)(Cn1cncn1)c1ccc(F)cc1F | inactive
CCOC(=O)[C@H](CCc1ccccc1)N[C@@H](C)C(=O)N1CCC[C@H]1C(=O)O | inactive
Cc1onc(-c2ccccc2)c1-c1ccc(S(N)(=O)=O)cc1 | inactive
c1ccc2c(CC3=NCCN3)cccc2c1 | inactive
Cc1sc(N)c(C(=O)c2cccc(C(F)(F)F)c2)c1C | inactive
C[C@H](N[C@@H](CCc1ccccc1)C(=O)O)C(=O)N1CCC[C@H]1C(=O)O | inactive
CN(C)CCc1c[nH]c2ccc(Cn3cncn3)cc12 | inactive
COc1cc(C[C@@H](CO)[C@H](CO)Cc2ccc(O)c(OC)c2)ccc1O | inactive

Further values, each from its own experiment
AIFM2: Ferroptosis suppressor protein 1 (AIFM2, Homo sapiens, UniProt Q9BRQ8)
Chain of UniProt Q9BRQ8 (whole entry, looked up): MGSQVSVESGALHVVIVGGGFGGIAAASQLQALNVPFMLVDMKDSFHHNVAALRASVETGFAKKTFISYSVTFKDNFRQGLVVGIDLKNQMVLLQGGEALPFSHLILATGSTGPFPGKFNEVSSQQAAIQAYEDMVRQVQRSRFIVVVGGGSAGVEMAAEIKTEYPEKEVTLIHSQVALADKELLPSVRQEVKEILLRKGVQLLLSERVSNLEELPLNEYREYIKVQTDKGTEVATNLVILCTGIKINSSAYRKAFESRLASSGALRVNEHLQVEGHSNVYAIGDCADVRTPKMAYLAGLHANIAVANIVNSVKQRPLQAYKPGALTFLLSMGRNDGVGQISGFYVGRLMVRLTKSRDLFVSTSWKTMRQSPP
Structure (SMILES) | tested on | test | system | conditions | scale | quantity | result
C[C@@H](c1ncncc1F)[C@](O)(Cn1cncn1)c1ccc(F)cc1F |  |  | octanol/water |  |  | logP | 1.66
O=C(Nc1nc2ccccc2s1)c1cccc2c1CN(c1nc(C(=O)O)c(CCOc3ccc(-n4ncc5cncnc54)cc3)s1)CC2 | BCL2L1 | biochemical |  |  |  | IC50 | 270 nM
Cc1[nH]c(C)c(-c2ccc(-c3ccccc3Cl)nc2)c(=O)c1Cl | Plasmodium falciparum | whole cell extended time | 3D7 | 72 h |  | IC50 | 220 nM
CO/N=C(\C(=O)N[C@@H]1C(=O)N2C(C(=O)O)=C(CSC(=O)c3ccco3)CS[C@H]12)c1csc(N)n1 | Staphylococcus aureus |  |  |  |  | MIC | 2 µg/mL (≈ 3.82 µM)
O=C(N1CCS(=O)(=O)CC1)N1C[C@H](c2ccc(OC(F)(F)F)cc2)C[C@H](c2nc(C3CC3)no2)C1 | F2R | cellular activity |  |  |  | IC50 | 10 nM
Cc1ccc(-c2c(C#N)c(N)n3c(nc4ccccc43)c2C#N)cc1 | AIFM2 | enzyme activity, inhibitor, resazurin |  |  |  | IC50 | 103 nM
C[C@H]1Oc2cc(cnc2N)-c2c(nn(C)c2C#N)CN(C)C(=O)c2ccc(F)cc21 |  |  | human plasma | prescribing information |  | unbound fraction | 0.345
COc1ccc2c(c1OC)CN1CCc3cc4c(cc3C1=C2)OCO4 | mouse lymphoma L5178Y TK cells |  |  | concentration not given |  | cytotoxicity | not toxic
COc1ccc(C[C@H](NC(=O)[C@H](C)NC(=O)CN2CCOCC2)C(=O)N[C@@H](Cc2ccccc2)C(=O)C2(C)CO2)cc1 (stereo in doubt) | HeLa | cytotoxicity |  |  |  | CC50 | 350 ± 143 nM
C[C@@H](O)[C@@H]1NC(=O)[C@H](CCCCN)NC(=O)[C@@H](Cc2c[nH]c3ccccc23)NC(=O)[C@H](Cc2ccc(O)cc2)NC(=O)[C@H](NC(=O)[C@H](Cc2ccc([N+](=O)[O-])cc2)NC(=O)CN2CCCN3CCN(CCCN(CC(=O)O)CC3)CC2)CSSC[C@@H](C(=O)N[C@H](Cc2ccc(O)cc2)C(N)=O)NC1=O [copper-64 labelled] | AR-42J | binding |  |  |  | Kd | 26 ± 2.4 nM
COc1ccc(N2CCN(Cc3cn4c(-c5ccc(Br)cc5)nnc4s3)CC2)cc1 | AIFM2 | inhibitor |  |  |  | IC50 | 313 nM
COc1ccc([C@@H](O)c2cc(-c3ncnc4cc(N5CCOCC5)ccc34)c(F)cc2Cl)nn1 | protein kinase panel |  |  | concentration not given |  | activity | inactive
CC(=O)Nc1c(C(C)=O)c(=O)n(C)c2nc(-c3ccc(Cl)cc3Cl)c(-c3ccc(Cl)cc3)cc12 | ADORA3 | MSD Pharma Taiwan panel screen |  |  |  | Ki | 773 nM
COC(=O)N1CCN(C(=N)c2cccc(NC(=O)Nc3ccc(S(=O)(=O)NCc4ccc(S(N)(=O)=O)cc4)cc3)c2)CC1 | Plasmodium falciparum | parasite growth | Dd2 |  |  | IC50 | 3.1 nM
CS(=O)(=O)c1ncn2c(NCc3c(F)ccc4c3CCO4)ncc(-c3ccc(C4CC4)nc3)c12 |  |  | mouse | oral, 10 mg/kg |  | AUC | 6000 ng·h/mL
C[C@@H](O)[C@H](NC(=O)[C@@H]1CSSC[C@H](NC(=O)[C@@H](Cc2ccccc2)NC(=O)CN2CCCN3CCN(CCCN(CC(=O)O)CC3)CC2)C(=O)N[C@@H](Cc2ccc(O)cc2)C(=O)N[C@H](Cc2c[nH]c3ccccc23)C(=O)N[C@@H](CCCCN)C(=O)N[C@@H]([C@@H](C)O)C(=O)N1)C(=O)O [copper-64 labelled] | AR-42J | binding |  |  |  | Kd | 1.7 nM
Nc1ncnc2c1ncn2[C@@H]1O[C@H](COP(=O)(O)OP(=O)(O)O)[C@@H](O)[C@H]1O | F-type ATP synthase | substrate |  |  |  | Km | 10 to 100 µM
CC(C)C[C@H](NC(=O)[C@H](Cc1ccccc1)NC(=O)c1cnccn1)B(O)O | 20S proteasome (Plasmodium falciparum, UniProt A0A5K1K7U1+Q8IJT1) | inhibitor |  | literature value |  | IC50 | 6.8 ± 0.3 nM
O=C(Nc1ccc(Cl)c(Cl)c1)Nc1ccc(Cl)c(Cl)c1 | Schistosoma mansoni |  |  | ex vivo worms |  | IC50 | 800 nM
Fc1ncccc1-c1ccc2c(n1)[nH]c1ccncc12 |  | binding, refers to: tau aggregates | progressive supranuclear palsy brain tissue |  |  | IC50 | < 2 nM
Cc1cc(C)nc(NS(=O)(=O)c2ccc(N)cc2)n1 | Staphylococcus aureus |  |  |  |  | MIC | 8 µg/mL (≈ 28.7 µM)
CC(C)n1nccc1-c1ncccc1COc1cccc(O)c1C=O |  |  | octanol/water |  |  | logP | 2.78
Nc1ncccn1 |  |  |  | literature value |  | pKa | ~3.5
C[C@H]1CNC(=O)c2cnn3ccc(nc23)N[C@H](C)c2cc(F)ccc2O1 |  |  | human patients | dose not given | reference: patients | patients with dose reductions | 35%
Cc1c[nH]c2nccc(Oc3c(F)cc(Nc4cc(Cl)nc(N)n4)cc3F)c12 | dopamine transporter | radioligand binding |  |  |  | IC50 | 400 nM
Cc1cc(=O)c(-c2ccc(Oc3ccc(Cl)cc3Cl)cc2)c(C)[nH]1 | Plasmodium falciparum | whole cell extended time | 3D7 | 72 h |  | IC50 | 840 nM

A few entries again (further values, each from its own experiment):
Structure (SMILES) | tested on | test | system | conditions | scale | quantity | result
COc1ccc2c(c1OC)CN1CCc3cc4c(cc3C1=C2)OCO4 | mouse lymphoma L5178Y TK cells |  |  | concentration not given |  | cytotoxicity | not toxic
Nc1ncccn1 |  |  |  | literature value |  | pKa | ~3.5
C[C@H]1Oc2cc(cnc2N)-c2c(nn(C)c2C#N)CN(C)C(=O)c2ccc(F)cc21 |  |  | human plasma | prescribing information |  | unbound fraction | 0.345
